# Measured values pooled from the literature.
# Parts stem from different laboratories: compare values within a part only. Substitutions count along the parent as printed.

# Block 1 — technique: protein-binding microarray; form: hairpin DNA; medium: in vitro; tested at: not given; baseline: not given; direction: higher = stronger binding
# Target: Microphthalmia-associated transcription factor, full length (MITF, Homo sapiens, UniProt O75030-10, residues 1-413)
# Setting: whole hairpin DNA, median over replicate spots
Sequence,median fluorescence [a.u.]
CACTGAGCACGTGATTTTGGTCCTCCAAAATCACGTGCTCAGTGACACTC,29200
CACTTAGCACGAGATTTTGGTCCTCCAAAATCTCGTGCTAAGTGACACTC,14500
GAGGCCTAGCACGTCGTGCCTCCTGGCACGACGTGCTAGGCCTCACACTC (5mC at 29),5860
GAGGCCTAGCACGAGCTGCCTCCTGGCAGCTCGTGCTAGGCCTCACACTC,10100
CACTAAGCACGTGATTTTGGTCCTCCAAAATCACGTGCTTAGTGACACTC,26400
GAGGCCTAGCACGTCCTGCCTCCTGGCAGGACGTGCTAGGCCTCACACTC (5mC at 15),5620
CACTTCGCACGTGATTTTGGTCCTCCAAAATCACGTGCGAAGTGACACTC (5mC at 6),26000
GAGGCCTAGCACCGGCTGCCTCCTGGCAGCCGGTGCTAGGCCTCACACTC (5mC at 31),5790

# Block 2 — target: CCNB2, cyclin fold, Cln2 fusion (human); technique: yeast growth competition, sequencing; medium: yeast; setting: strong parent motif; baseline: not given; direction: higher = stronger binding
# Parent: viral docking peptide; TSVRRALFTGGSD; partner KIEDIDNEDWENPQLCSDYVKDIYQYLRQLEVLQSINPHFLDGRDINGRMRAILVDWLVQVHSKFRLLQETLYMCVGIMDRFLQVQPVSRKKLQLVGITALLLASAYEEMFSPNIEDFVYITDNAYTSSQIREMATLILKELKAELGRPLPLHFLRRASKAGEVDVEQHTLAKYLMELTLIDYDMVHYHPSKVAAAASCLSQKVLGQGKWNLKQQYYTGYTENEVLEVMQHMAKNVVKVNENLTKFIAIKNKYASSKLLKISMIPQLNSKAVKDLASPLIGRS
Change,normalised enrichment score
A6S,0.224
G10S,1.07
T9L,0.588
L7Y,0.634
G11Y,0.284
R5Q,0.508
R5G,0.163
G10C,0.73
F8D,0.317
G11T,1.04
F8W,0.305
A6L,-0.0302
S2E,0.833
L7C,0.165
L7M,0.902
F8P,0.32
L7N,0.399
V3F,0.658
S2C,0.689
G10V,0.385
S12T,0.45
G10P,0.273
G10M,0.276
R4G,-0.41
S12A,0.659

# Block 3 — technique: protein-binding microarray; form: double-stranded DNA, one strand shown; medium: in vitro; tested at: not given; direction: higher = stronger binding
# Target: Protein C-ets-1 (ETS1, Homo sapiens, UniProt P14921, residues 1-441, K379A, full length assumed)
# Setting: k-mer, scored over probes, only values ≥0.25
# Target sequence (chain): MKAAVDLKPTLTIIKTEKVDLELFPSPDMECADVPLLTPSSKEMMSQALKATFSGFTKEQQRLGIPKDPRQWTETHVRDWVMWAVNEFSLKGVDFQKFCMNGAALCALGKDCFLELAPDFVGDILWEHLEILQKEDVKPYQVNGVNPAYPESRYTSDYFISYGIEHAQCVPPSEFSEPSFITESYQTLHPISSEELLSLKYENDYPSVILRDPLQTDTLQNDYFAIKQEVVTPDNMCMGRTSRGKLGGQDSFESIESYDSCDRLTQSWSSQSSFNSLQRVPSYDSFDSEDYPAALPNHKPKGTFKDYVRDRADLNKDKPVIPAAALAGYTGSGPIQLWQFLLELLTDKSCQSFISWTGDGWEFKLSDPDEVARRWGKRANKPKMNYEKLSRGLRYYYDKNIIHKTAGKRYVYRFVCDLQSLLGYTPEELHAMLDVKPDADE
Sequence,E-score
GGACCGGA,0.375
CCGGACAA,0.283
CGATATCG,0.29
GGCCGGGA,0.364
ATAACCGG,0.373
CGGCGCCG,0.329
CATACCGG,0.413
GCCGGAAC,0.356

# Block 4 — technique: aptamer microarray, sandwich; form: DNA with 2'F-ANA; medium: in vitro; tested at: 200 nM; added: Cy3 exosite-II aptamer, 400 nM; direction: higher = stronger binding; sequence: GGTTGGTGTGGTTGG
# Target: Prothrombin, mature alpha-thrombin (F2, Homo sapiens, UniProt P00734)
# Setting: whole 15-mer aptamer, many near background
Modification,mean fluorescence intensity
2'F-ANA at 2 3 6 7 9 10 12 14,243 a.u.
2'F-ANA at 1 2 3 5 6 9 11 15,55.4 a.u.
2'F-ANA at 1 5 6 12 13 15,78.8 a.u.
2'F-ANA at 1 7 8 9 10 11 13,62.5 a.u.
2'F-ANA at 1 2 4 5 11 14,42.9 a.u.
2'F-ANA at 2 3 4 6 8 11 14 15,249 a.u.
2'F-ANA at 1 3 5 6 8 10 11 13,47.5 a.u.
2'F-ANA at 1 3 5 6 8 10 12 13 15,47.8 a.u.

# Block 5 — read-out: peptide-MHC binding; form: peptide; tested at: concentration not given
# Target: HLA class I histocompatibility antigen, A alpha chain, allele A*80:01 (Homo sapiens, UniProt P04439)
Molecule,binding
AILAGEHKC,inactive
MTRGLLGSY,inactive
VFSDGRVAC,inactive

# A few entries again (block 1):
Sequence,median fluorescence [a.u.]
GAGGCCTAGCACGTCGTGCCTCCTGGCACGACGTGCTAGGCCTCACACTC (5mC at 29),5860
GAGGCCTAGCACGAGCTGCCTCCTGGCAGCTCGTGCTAGGCCTCACACTC,10100
CACTAAGCACGTGATTTTGGTCCTCCAAAATCACGTGCTTAGTGACACTC,26400
GAGGCCTAGCACGTCCTGCCTCCTGGCAGGACGTGCTAGGCCTCACACTC (5mC at 15),5620
CACTTCGCACGTGATTTTGGTCCTCCAAAATCACGTGCGAAGTGACACTC (5mC at 6),26000
GAGGCCTAGCACCGGCTGCCTCCTGGCAGCCGGTGCTAGGCCTCACACTC (5mC at 31),5790
